# Measured values gathered from unrelated publications.
# By UniProt entry, the sequences of proteins in these tests, tags left out. Where a name states a change or a piece, a line headed by the entry shows the natural chain unless it says otherwise. Residues count along the entry.
# UniProt P9WIQ1, whole entry: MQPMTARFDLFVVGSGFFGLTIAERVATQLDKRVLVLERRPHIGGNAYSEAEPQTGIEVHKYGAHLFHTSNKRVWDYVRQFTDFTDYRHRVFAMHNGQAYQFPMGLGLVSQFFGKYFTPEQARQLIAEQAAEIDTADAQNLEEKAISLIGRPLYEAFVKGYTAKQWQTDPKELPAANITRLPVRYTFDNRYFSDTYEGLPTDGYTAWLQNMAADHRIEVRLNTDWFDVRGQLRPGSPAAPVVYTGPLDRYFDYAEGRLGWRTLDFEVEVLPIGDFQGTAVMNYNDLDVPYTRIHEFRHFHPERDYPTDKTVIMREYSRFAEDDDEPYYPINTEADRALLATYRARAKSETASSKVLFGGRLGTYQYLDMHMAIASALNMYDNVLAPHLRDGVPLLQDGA
# UniProt P41145, whole entry: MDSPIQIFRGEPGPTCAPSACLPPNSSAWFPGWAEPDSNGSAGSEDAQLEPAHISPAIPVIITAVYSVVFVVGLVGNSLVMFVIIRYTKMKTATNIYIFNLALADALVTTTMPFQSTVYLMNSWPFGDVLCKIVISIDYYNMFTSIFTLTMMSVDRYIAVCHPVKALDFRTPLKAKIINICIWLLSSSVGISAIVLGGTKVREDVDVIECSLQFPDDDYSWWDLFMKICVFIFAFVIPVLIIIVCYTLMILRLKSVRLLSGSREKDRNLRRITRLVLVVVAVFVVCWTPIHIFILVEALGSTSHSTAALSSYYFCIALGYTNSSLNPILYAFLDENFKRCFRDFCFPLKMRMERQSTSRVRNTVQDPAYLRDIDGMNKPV
# UniProt Q00961, whole entry, looked up: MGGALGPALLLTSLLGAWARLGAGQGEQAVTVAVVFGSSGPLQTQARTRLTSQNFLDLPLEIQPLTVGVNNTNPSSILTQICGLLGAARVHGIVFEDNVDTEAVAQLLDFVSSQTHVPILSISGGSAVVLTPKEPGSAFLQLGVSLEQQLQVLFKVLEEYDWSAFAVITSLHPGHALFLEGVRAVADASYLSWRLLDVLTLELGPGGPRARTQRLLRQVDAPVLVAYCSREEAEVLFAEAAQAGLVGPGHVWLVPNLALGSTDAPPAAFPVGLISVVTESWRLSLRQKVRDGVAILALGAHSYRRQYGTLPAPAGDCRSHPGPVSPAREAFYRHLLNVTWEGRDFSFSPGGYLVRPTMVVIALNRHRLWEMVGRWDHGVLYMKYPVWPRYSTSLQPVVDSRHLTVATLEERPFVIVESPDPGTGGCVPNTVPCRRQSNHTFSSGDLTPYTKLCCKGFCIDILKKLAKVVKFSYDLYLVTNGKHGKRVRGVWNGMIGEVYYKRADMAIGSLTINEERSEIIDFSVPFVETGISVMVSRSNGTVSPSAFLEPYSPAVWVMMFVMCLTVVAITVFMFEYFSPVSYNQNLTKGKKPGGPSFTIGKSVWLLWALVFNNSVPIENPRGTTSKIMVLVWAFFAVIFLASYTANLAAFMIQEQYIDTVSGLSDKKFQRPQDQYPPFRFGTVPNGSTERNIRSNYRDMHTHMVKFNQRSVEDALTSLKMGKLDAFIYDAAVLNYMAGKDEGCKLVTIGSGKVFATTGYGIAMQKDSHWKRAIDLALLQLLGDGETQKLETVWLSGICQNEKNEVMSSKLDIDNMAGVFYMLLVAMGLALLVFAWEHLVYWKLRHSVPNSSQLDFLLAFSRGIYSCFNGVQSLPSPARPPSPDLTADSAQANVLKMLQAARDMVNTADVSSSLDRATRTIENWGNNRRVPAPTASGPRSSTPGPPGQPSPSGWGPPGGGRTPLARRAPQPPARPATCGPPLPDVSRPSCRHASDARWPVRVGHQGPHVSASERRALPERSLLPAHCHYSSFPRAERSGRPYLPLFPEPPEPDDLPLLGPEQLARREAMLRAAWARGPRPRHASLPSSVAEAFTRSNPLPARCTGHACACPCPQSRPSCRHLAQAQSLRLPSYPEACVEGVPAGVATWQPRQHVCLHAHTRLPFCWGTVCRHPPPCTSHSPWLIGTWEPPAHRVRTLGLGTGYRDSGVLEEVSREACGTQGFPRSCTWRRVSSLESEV
# UniProt Q08J23, whole entry: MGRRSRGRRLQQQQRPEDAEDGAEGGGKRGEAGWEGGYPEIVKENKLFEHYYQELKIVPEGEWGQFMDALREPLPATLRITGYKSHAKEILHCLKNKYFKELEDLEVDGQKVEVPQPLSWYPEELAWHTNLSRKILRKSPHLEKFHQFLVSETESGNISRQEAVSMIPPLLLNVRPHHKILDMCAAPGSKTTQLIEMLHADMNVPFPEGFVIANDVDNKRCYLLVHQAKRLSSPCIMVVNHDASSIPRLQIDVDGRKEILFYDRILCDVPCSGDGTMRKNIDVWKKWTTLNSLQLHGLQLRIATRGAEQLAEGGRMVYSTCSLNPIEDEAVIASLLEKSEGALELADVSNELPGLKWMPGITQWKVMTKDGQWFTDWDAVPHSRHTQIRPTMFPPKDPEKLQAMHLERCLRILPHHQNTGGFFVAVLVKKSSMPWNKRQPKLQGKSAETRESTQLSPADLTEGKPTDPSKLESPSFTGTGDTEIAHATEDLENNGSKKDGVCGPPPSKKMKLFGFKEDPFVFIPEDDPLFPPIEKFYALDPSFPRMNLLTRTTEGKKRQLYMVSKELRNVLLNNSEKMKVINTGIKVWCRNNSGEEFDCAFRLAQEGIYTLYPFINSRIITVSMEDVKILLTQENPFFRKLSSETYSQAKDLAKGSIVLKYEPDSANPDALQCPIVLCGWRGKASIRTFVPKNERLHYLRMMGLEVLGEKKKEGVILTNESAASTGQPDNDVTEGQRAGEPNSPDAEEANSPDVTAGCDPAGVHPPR
# UniProt P07949, whole entry G810C, looked up: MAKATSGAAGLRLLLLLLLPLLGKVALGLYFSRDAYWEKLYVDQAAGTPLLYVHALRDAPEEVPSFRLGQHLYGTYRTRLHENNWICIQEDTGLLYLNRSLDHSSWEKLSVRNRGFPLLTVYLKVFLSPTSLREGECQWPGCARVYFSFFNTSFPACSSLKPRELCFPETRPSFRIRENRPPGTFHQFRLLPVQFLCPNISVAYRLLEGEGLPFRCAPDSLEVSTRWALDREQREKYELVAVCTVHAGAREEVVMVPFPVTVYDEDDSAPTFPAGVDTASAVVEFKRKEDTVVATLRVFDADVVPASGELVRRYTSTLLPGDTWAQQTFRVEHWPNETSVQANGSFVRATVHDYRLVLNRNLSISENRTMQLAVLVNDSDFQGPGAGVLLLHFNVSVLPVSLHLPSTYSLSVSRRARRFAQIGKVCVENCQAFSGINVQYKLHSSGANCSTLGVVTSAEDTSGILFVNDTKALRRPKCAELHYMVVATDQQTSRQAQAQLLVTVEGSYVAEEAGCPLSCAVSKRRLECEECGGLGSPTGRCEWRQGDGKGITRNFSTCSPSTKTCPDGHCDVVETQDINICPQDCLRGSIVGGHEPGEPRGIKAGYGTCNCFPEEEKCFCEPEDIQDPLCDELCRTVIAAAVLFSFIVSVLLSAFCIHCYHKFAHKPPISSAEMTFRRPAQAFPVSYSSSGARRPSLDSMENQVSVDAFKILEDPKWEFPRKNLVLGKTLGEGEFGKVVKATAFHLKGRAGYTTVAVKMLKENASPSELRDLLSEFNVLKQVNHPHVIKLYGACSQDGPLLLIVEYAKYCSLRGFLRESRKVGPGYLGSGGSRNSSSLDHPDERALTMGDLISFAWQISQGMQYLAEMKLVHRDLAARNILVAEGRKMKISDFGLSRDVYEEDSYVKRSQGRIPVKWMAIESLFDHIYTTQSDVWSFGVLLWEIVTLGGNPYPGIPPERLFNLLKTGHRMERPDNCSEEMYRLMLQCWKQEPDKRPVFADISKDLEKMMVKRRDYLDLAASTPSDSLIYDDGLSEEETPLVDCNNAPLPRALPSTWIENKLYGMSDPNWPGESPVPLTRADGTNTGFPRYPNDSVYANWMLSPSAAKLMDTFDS
# UniProt Q8T632, 1-509: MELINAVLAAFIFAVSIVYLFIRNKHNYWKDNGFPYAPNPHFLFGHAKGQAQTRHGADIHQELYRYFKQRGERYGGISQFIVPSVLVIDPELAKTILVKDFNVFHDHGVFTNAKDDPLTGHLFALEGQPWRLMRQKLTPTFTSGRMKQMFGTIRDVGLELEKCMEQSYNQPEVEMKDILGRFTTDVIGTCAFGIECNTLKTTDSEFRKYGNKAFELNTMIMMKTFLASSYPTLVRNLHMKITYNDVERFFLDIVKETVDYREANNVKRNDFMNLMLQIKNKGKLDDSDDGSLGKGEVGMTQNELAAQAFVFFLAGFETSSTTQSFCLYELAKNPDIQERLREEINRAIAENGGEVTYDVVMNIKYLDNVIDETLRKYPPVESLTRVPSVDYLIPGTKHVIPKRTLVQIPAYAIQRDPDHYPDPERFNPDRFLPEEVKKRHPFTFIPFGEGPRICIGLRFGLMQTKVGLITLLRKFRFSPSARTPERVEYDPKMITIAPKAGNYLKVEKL
# UniProt P10275, whole entry T878A: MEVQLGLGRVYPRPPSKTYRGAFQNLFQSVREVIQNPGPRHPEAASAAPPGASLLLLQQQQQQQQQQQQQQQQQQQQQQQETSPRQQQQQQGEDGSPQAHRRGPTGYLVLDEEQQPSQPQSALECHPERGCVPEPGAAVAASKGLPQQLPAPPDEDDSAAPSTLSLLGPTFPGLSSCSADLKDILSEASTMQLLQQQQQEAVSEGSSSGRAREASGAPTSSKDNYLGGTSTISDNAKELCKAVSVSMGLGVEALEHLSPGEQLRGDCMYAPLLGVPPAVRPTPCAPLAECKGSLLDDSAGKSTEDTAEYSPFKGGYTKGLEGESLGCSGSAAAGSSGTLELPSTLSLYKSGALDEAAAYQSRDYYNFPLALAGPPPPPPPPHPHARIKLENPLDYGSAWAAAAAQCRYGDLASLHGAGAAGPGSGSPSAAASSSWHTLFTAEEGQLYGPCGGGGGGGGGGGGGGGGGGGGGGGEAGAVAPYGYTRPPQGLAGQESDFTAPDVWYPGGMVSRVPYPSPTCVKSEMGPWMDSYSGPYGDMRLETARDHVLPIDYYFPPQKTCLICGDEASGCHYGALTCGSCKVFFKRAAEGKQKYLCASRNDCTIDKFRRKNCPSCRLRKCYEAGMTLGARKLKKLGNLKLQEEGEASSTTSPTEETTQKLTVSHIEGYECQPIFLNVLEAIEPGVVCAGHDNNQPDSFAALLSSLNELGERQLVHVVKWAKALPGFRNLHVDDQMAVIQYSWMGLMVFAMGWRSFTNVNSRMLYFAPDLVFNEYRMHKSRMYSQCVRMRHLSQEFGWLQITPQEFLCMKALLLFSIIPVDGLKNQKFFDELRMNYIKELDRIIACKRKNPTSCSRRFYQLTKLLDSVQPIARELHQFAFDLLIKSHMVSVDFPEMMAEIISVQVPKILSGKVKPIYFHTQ
# UniProt P33534, whole entry: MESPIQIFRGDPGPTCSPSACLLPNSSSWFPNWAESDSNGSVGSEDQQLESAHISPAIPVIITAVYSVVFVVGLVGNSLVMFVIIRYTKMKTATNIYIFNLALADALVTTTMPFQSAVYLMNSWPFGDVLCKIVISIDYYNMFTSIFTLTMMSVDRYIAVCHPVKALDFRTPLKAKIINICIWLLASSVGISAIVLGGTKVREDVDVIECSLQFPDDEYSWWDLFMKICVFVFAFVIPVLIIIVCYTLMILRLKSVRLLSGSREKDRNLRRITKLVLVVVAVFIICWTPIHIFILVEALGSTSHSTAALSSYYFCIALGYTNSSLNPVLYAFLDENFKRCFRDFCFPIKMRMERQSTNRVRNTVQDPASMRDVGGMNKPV
# UniProt P42261, 19-906 limits assumed: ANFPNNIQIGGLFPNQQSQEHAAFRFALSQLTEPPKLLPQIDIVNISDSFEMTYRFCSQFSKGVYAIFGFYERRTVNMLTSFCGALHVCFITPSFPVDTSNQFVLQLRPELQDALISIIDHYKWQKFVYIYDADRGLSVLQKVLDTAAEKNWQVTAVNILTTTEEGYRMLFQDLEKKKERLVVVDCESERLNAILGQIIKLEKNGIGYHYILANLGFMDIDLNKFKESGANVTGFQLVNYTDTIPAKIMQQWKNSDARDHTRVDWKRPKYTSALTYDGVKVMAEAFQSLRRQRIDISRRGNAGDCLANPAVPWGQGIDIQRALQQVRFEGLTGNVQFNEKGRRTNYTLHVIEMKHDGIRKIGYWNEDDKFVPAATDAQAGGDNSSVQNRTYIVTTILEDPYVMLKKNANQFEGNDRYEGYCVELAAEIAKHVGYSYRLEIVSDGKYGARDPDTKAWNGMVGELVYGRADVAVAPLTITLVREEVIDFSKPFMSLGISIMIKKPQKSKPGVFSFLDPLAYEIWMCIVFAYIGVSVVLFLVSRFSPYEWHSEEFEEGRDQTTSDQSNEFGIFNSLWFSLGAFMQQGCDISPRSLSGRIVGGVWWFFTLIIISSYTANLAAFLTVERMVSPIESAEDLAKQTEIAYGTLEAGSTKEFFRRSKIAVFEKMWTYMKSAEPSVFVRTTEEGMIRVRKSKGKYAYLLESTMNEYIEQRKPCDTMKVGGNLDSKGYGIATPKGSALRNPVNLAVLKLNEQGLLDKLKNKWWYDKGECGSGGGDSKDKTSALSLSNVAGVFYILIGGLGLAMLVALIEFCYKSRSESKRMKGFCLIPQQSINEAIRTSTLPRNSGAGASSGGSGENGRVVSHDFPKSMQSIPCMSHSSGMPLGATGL
# Compare with care: the assays were run in different laboratories. ± marks the error that the study gave.
# glf: UDP-galactopyranose mutase (glf, Mycobacterium tuberculosis, UniProt P9WIQ1)
# OPRK1: Kappa-type opioid receptor (OPRK1, Homo sapiens, UniProt P41145)
Molecule,target,assay,test system,setting,scale,measurement,value
CCN1CCN(Cc2ccc(NC(=O)c3ccc(C)c(/C=C/c4cnc5[nH]ccc5c4OC)c3)cc2C(F)(F)F)CC1,"PIM3 (Homo sapiens, UniProt Q86V86)",inhibitor,,5 µM,relative to: no inhibitor,log2 fold change,0.189
COc1ccc(S(=O)(=O)NC(=O)C(Cc2ccc(I)cc2)Nc2nc(-c3ccc(Cl)c(Cl)c3)cs2)cc1 (stereo not shown),glf,"enzyme activity, inhibitor",,,relative to: compound over reference carboxylate,IC50 ratio,2 to 3 fold
COc1ccc(OC[C@H]2c3cccn3CC(=O)N2Cc2cccc(F)c2)cc1,"Glutamate receptor ionotropic, NMDA 2C, with GluN1 (Rattus norvegicus, UniProt Q00961)","ion current, positive allosteric modulator, two-electrode voltage clamp",Xenopus oocytes expressing GluN1/GluN2C,,,maximum potentiation,292%
C=CC(=O)N1C[C@H](c2ccc(Br)cc2)[C@@H]1C(=O)Nc1cccc2cccnc12,"NSUN2 (Homo sapiens, UniProt Q08J23)","methyltransferase activity, covalent inhibitor",,,,kinact/KI,67 ± 15 M⁻¹ s⁻¹
methoxymethyl salvinorin B,OPRK1,"receptor internalization, agonist, on-cell western",,human receptor,relative to: control,Emax,52.2 ± 1.7%
CC#C/C(=N\OC[C@H]1COCCN1)c1ccc2ncnc(Nc3ccc(OCc4cccc(F)c4)c(Cl)c3)c2c1,"ZAP70 (Homo sapiens, UniProt P43403)",kinase activity,,10 µM,,inhibition,36.8%
Cc1ccc2nc(-c3ccc4nc(-c5ccc(NC(=O)c6ccc7nc(-c8ccc(N)cc8)sc7c6)cc5)sc4c3)sc2c1S(=O)(=O)O,MBHA DNA substrate,SYBR Green I displacement,,100 µM,,DNA bound,59 ± 4%
Cc1ccc(C(=O)Nc2ccc(CN3CCN(C)CC3)c(C(F)(F)F)c2)cc1C#Cc1cnc2cccnn12,"Proto-oncogene tyrosine-protein kinase receptor Ret, KIF5B-RET fusion (RET, Homo sapiens, UniProt P07949, G810C)",inhibitor,,"0.02 µM, cell-based",,inhibition,< 25%
CCOc1ccc2c(c1)Oc1cc(OCC)ccc1C21OC(=O)c2ccccc21,"cyp6p3 (Anopheles gambiae, UniProt Q8T632)",substrate,,single plasmid expression,,Vmax,54.4 ± 6.52 RFU/s
C[C@]12CCC(=O)C=C1CCC1C2CC[C@]2(C)C(n3cnc4ccccc43)=CCC12 (stereo partly shown),"Androgen receptor (AR, Homo sapiens, UniProt P10275, T878A)","reporter gene, antagonist",LNCaP,"10 µM, 18 h, together with: DHT 10 nM",,inhibition,90 to 99%
CN(C(=O)Cc1ccc(Cl)c(Cl)c1)[C@H](CN1CCCC1)c1ccccc1,OPRK1,"receptor internalization, agonist",,concentration not given,relative to: dynorphin A,log intrinsic relative activity,0.7 ± 0.15
U-69593,OPRK1,"G protein activation, agonist",CHO-hKOR cell membranes,,relative to: reference agonist,Emax,100%
ethoxymethyl salvinorin B,"Oprk1 (Mus musculus, UniProt P33534)","receptor internalization, agonist",,concentration not given,relative to: dynorphin A,log intrinsic relative activity,0.66 ± 0.23
O=C(NS(=O)(=O)C(F)(F)F)C(Cc1ccc(I)cc1)Nc1nc(-c2ccc(Cl)c(Cl)c2)cs1 (stereo not shown),glf,"enzyme activity, inhibitor",,,relative to: compound over reference carboxylate,IC50 ratio,2 to 3 fold
CN(C(=O)Cc1cccc2occc12)[C@H]1CC[C@@]2(CCCO2)C[C@@H]1N1CCCC1,OPRK1,"receptor internalization, agonist",,concentration not given,relative to: dynorphin A,log intrinsic relative activity,0.67 ± 0.14
CCN(CC)C(=O)Oc1ccc(C(=O)Nc2cccc3cc[nH]c23)cc1,"GRIA1 (Homo sapiens, UniProt P42261)","modulator, two-electrode voltage clamp",Xenopus oocytes,"20 µM, together with: 100 µM glutamate",relative to: agonist alone,current response,101 ± 2.8%

# Some of these lines once more:
Molecule,target,assay,test system,setting,scale,measurement,value
CCN1CCN(Cc2ccc(NC(=O)c3ccc(C)c(/C=C/c4cnc5[nH]ccc5c4OC)c3)cc2C(F)(F)F)CC1,"PIM3 (Homo sapiens, UniProt Q86V86)",inhibitor,,5 µM,relative to: no inhibitor,log2 fold change,0.189
